Measured values pooled from the literature.
Compare with care: the assays were run in different laboratories. Values joined by “and” are separate records of one study, mostly repeats; a detail may differ. ± marks the error that the study gave.

With `O=Nc1c(-c2c(O)[nH]c3ccccc23)[nH]c2ccccc12` the inhibition was -19.9% (NLRP3 inflammasome (mouse); mouse BMDM; 10 µM).
Under “change in fasting serum insulin”, `Cc1ccc([C@@H]2O[C@H](CO)[C@@H](O)[C@H](O)[C@H]2O)cc1Cc1ccc(-c2ccc(F)cc2)s1` is recorded as -1.7 µU/mL (Japanese type 2 diabetes patients; 400 mg, day 17; relative to: day 1).
`CC(C)(COP(=O)(O)OP(=O)(O)OC[C@H]1O[C@@H](n2cnc3c(N)ncnc32)[C@H](O)[C@@H]1O)[C@@H](O)C(=O)NCCC(=O)NCCS` — result for “z-scored log2 fold change”: -0.62 (binding, equilibrium dialysis LC-MS; 5 µM, thermostabilized A2AR-BRIL construct; relative to: no-protein control, direction not given).
`Cn1cc(Nc2nc(N)nc(-c3cccc(-n4ccc5cc(C6CC6)cc(F)c5c4=O)c3CO)n2)cn1` has an inhibition of 74.8% (CD63 upregulation, anti-IgE-induced; human, multiple ascending dose, whole blood basophils ex vivo; 50 mg twice daily, day 14, 4 h).
Under “objective response rate”, `CCN1CCN(Cc2ccc(Nc3ncc(F)c(-c4cc(F)c5nc6n(c5c4)[C@H](C)CCC6)n3)nc2)CC1` is recorded as 0% (human advanced solid tumours; 300 mg, phase Ia monotherapy RECIST 1.1).
With `Cc1ccc(C(=O)NC2CC2)cc1-n1ncc(C(=O)c2cccc(C#N)c2)c1N` the inhibition was -9.93% (NLRP3 inflammasome (mouse); mouse BMDM; 10 µM).
Under “z-scored log2 fold change”, `N[C@@H](Cc1cc(I)c(O)c(I)c1)C(=O)O` is recorded as 0.271 (binding, equilibrium dialysis LC-MS; 5 µM, thermostabilized A2AR-BRIL construct; relative to: no-protein control, direction not given).
For `C[C@@H]1CCC[C@H](n2cnc(-c3cc(Cl)ccc3-n3cc(Cl)nn3)cc2=O)c2cc(ccn2)-c2c(cnn2C(F)F)NC1=O`, “concentration for aPTT prolongation” read 70 nM (cynomolgus monkey plasma; IC1.5× aPTT, STA-PTT reagent).
`C[C@@H](O)CCOC(=O)C[C@@H](C)O` has a log2 level of 4.25 ± 0.84 pmol/L (measured: glucagon; human, plasma; 60 min).
The EC50 of `CC1(C)CCC(CN2CCN(c3ccc(C(=O)NS(=O)(=O)c4ccc(NCC5CCOCC5)c([N+](=O)[O-])c4)c(Oc4cnc5[nH]ccc5c4)c3)CC2)=C(c2ccc(Cl)cc2)C1` is reported as 16.7 nM (cell killing; canine lymph node CD3+ T cells, dog 33; 24 h).
`Cc1n[nH]c2ccc(-c3cc(OC[C@@H](N)Cc4ccccc4)cnc3-c3ccoc3)cc12` — result for “log2 fold change”: -0.128 (kinase binding, competitor, MIB/MS competition, measured: PKH3; Candida albicans cell lysate; 1 µM; relative to: DMSO).
`CC(c1cc2ccccc2s1)N(O)C(N)=O` (centres unmarked) has an amount of 45300 ± 11500 pg/mL blood (measured: docosahexaenoic acid; human whole blood; 3 µM, with: Escherichia coli).
The radical scavenging of `O=CNCc1ccc(O)cc1` is reported as 38.4 ± 1.7% (ABTS radical; 300 µg/mL).
With `C=CCn1c(=O)c2cnc(Nc3ccc(N4CCN(C)CC4)cc3)nc2n1-c1ccc2c(n1)[C@@](O)(CC)CC2` the tumour volume was 59.6% (BALB/c nude mouse, DU-145 xenograft; oral, 80 mg/kg, 5 d on 2 d off ×4, day 30; relative to: vehicle).
`CSCCNc1nc(SCCC(F)(F)F)nc2c1ncn2[C@@H]1O[C@H](COP(=O)(O)OP(=O)(O)C(Cl)(Cl)P(=O)(O)O)[C@@H](O)[C@H]1O`: “patients with IPA above 80%” 15.4% (platelet aggregation, light transmission aggregometry; human patients, platelet-rich plasma; dose not given, 2 h, with: TRAP 5 µM).
For `C[C@@H](NC(=O)N1C(=O)[C@H](Cc2ccnc(N)c2)[C@H]1C(=O)O)C1CCCCC1`, the ACT Emax was 1.07 (human; iv infusion, 2.25 mg/kg/h, 24 h, unit not given; relative to: baseline).
For `N#Cc1ccc2c(-c3ccncc3)c(-c3ccc(F)cc3)nn2c1`, “log2 fold change” read -0.161 (kinase binding, competitor, MIB/MS competition, measured: HST7; Candida albicans cell lysate; 1 µM; relative to: DMSO).
`COc1cc2c(N3CCN(C(=O)Nc4ccc(OC(C)C)cc4)CC3)ncnc2cc1OCCCN1CCCCC1` gave a cell index of 98.1% (iCell Cardiomyocytes (hiPSC-derived); cellular impedance; concentration not given, 24 h; relative to: control).
`CO[C@H]1CC[C@H](N2C(=O)CNc3ncc(-c4ccc(C(C)(C)O)nc4)nc32)CC1`: “pS6RP change from baseline” -67.2% (flow cytometry; stimulated B cells, human, blood; 60 mg single dose, 1.5 h, mean; relative to: baseline).
Under “z-scored log2 fold change”, `NC(=O)c1ccc[n+](C2OC(COP(=O)(O)OP(=O)(O)OCC3OC(n4cnc5c(=O)[nH]cnc54)C(O)C3O)C(O)C2O)c1` (centres unmarked) is recorded as 0.131 (binding, equilibrium dialysis LC-MS; 5 µM, thermostabilized A2AR-BRIL construct; relative to: no-protein control, direction not given).
`OCC(O)CO` — result for “plasma FGF21 level”: 367 pg/mL and 1380 pg/mL and 595 pg/mL and 1280 pg/mL and 295 pg/mL (ELISA; male Slc25a13 knockout mice, serum; oral in drinking water, 5 % w/v, 2 days).
`Cc1cn(-c2ccc3n(c2=O)CCN([C@@H](C)[C@@H]2CC[C@H](c4cc(F)c(Cl)cc4C(F)(F)F)O2)C3=O)cn1` — result for “change in CSF level”: -22.3% (measured: Aβ40; human, cerebrospinal fluid; 300 mg single dose, Tmax; relative to: placebo-adjusted baseline).
Under “relative tumour volume T/C”, `COc1cc(Nc2ncc3c(n2)-c2ccc(Cl)cc2C(c2c(F)cccc2OC)=NC3)ccc1C(=O)O` is recorded as 1.15 (mouse, NB-1643 neuroblastoma xenograft; oral, 5.2 mg/kg, day 14; relative to: vehicle).
The k3 of `O=C(OC(C(F)(F)F)C(F)(F)F)N1CCN(Cc2cccc(Oc3ccccc3)c2)CC1` is reported as 3.27 min⁻¹ (PET blocking study; rhesus monkey, brain HIP; 0.1 mg/kg, compound pretreatment, with: [18F]T-401 tracer).
The fold change of `COc1ccc(-c2cncc(N[C@@H](C)c3cccc(NC(=O)c4cncc(C)c4)c3)n2)cc1OC` is reported as 1.14 (measured: rno-miR-874-3p; rat SU5416/hypoxia model, lung; dose not given; relative to: SU5416/hypoxia vehicle).
Under “prothrombin time AUC(0-48h)”, `O=C(NC[C@H]1CN(c2ccc(N3CCOCC3=O)cc2)C(=O)O1)c1ccc(Cl)s1` is recorded as 71 (human normal renal function, plasma; 10 mg, mean, unit not given; relative to: baseline).
`COc1cc2cc(-c3ccc(CC(=O)Nc4cc(C(C)(C)C(F)(F)F)no4)cn3)cnc2cc1OC`: “objective response rate” 50% (RECIST v1.1; human RET-altered solid tumours; 13 100 mg tablets, phase I).
For `CC(C)[C@H](C(=O)Nc1ccc(C(=O)NO)cc1)c1ccccc1`, the tumour volume was 0.0852 cm3 (volumetric MRI; human, right C1 intradural meningioma; dose not given, day 809).
Under “z-scored log2 fold change”, `NC(=O)CCC(N)C(=O)O` (stereo in doubt) is recorded as 0.242 (binding, equilibrium dialysis LC-MS; 5 µM, thermostabilized A2AR-BRIL construct; relative to: no-protein control, direction not given).
The sarcomere length of `O=C(O)CNC(=O)Cc1ccccc1` is reported as 1.72 µm (ventricular cardiomyocytes, C57BL/6 mouse; dose not given, 0.1 s).
For `O=C(COc1ccc(N2C(=O)[C@@H]3[C@@H]4C=C[C@@H]([C@H]5C[C@@H]45)[C@@H]3C2=O)cc1)c1cc(Cl)cc(Cl)c1`, “plasma EPC level” read “increased” (mice, plasma; 20 mg/kg, single dose).
Under “objective response rate”, `C[C@H](NC(=O)c1c(C(F)F)nn(C)c1Oc1cccc(C(F)(F)F)c1)c1ccc(C(=O)O)cc1` is recorded as 0% (irRECIST; human, advanced tumours; 750 mg).
For `Nc1ccn([C@H]2C[C@H](O)[C@@H](COP(=O)(O)OP(=O)(O)O)O2)c(=O)n1`, “z-scored log2 fold change” read -1.14 (binding, equilibrium dialysis LC-MS; 5 µM, thermostabilized A2AR-BRIL construct; relative to: no-protein control, direction not given).
For `CN(C)C(=O)Oc1cccc([N+](C)(C)C)c1`, the train-of-four ratio was 4.84 (neuromuscular block reversal; rat; dose not given, 0.5 (unit not given), with: cisatracurium; relative to: T1 twitch).
`CC(C)NCC(O)c1ccc(O)c(O)c1` (centres unmarked) gave a sarcomere length of 1.5 µm (ventricular cardiomyocytes, C57BL/6 mouse; dose not given, 0.54 s).
`O=C(O)c1ccc(O)cc1` gave a radical scavenging of 29.6 ± 1.28% (ABTS radical; 300 µg/mL).
The Iba1-positive area of `O=P(O)(O)C(Cl)(Cl)P(=O)(O)O` is reported as 2.11% (immunostaining; mouse, SAH model, hippocampal fissure; dose not given, day 7; relative to: total area).
Under “log2 fold change”, `c1ccc(-c2n[nH]cc2-c2ccnc3ccccc23)nc1` is recorded as 1.6 (kinase binding, competitor, MIB/MS competition, measured: MKK2; Candida albicans cell lysate; 1 µM; relative to: DMSO).
`NC1(C(=O)N[C@@H](CCO)c2ccc(Cl)cc2)CCN(c2nc[nH]c3nccc2-3)CC1`: “overall non-response rate” 75% (human mCRPC patients; dose not given, with: enzalutamide).
For `Cn1cc(Nc2nccc(-c3ccc4c(c3)CN(C3COC3)CC[C@H]4NC(=O)c3cn(C(C)(C)C)nn3)n2)cn1`, “pathway activation z-score” read -1.13 (measured: p14/p19ARF in tumour suppression; splenic B cells, mice; 30 mg/kg, IgD-activated in vivo; relative to: vehicle, direction not given).
Under “log2 fold change”, `N#Cc1ccn2c(-c3ccncc3)c(-c3ccc(F)cc3)nc2c1` is recorded as -0.28 (kinase binding, competitor, MIB/MS competition, measured: SCH9; Candida albicans cell lysate; 100 nM; relative to: DMSO).
`CC(C(=O)O)C(=O)O`: “z-scored log2 fold change” -0.0624 (binding, equilibrium dialysis LC-MS; 5 µM, thermostabilized A2AR-BRIL construct; relative to: no-protein control, direction not given).
For `COc1ccccc1[C@H](Cn1c(=O)n(C(C)(C)C(=O)O)c(=O)c2c(C)c(-c3ncco3)sc21)OC1CCOCC1`, “blood VLDL level” read 13.9 ± 9.97 mg/dL (human; 200 mg, post-treatment).
The inhibition of `CC[C@@H]1[C@H](F)C(=O)N[C@@H]1COc1nccc2cc(C(N)=O)c(OC)cc12` is reported as -11.1% (ATP-site probe binding, ActivX profiling, measured: CDK11, CDK8; THP-1 cell lysate; 0.04 mM, Lys2 site).
Under “change from baseline”, `N#Cc1ccc2c(c1)[C@H]1CCCN(C(=O)c3ccc4[nH]cnc4c3)[C@H]1C2` is recorded as 0.01 pmol/L (measured: fasting C-peptide; human, Phase II trial; oral, 80 mg once daily, day 28, adjusted mean, SE).
For `O=C(O)[C@H](O)[C@@H](O)[C@H](O)[C@H](O)COP(=O)(O)O`, “z-scored log2 fold change” read 0.0795 (binding, equilibrium dialysis LC-MS; 5 µM, thermostabilized A2AR-BRIL construct; relative to: no-protein control, direction not given).
`Cc1noc(C)c1-c1cc(C(O)(c2ccccn2)c2ccccn2)c2nc(C3CC3)[nH]c2c1` gave a maximum induction of 9.9% (measured: HEXIM1 expression; human, peripheral blood; 3 mg, day 1, 1599 study).
For `OC(CCN1CCCCC1)(c1ccccc1)C1CC2C=CC1C2` (centres unmarked), “EEG Alpha2-power Pz-O1” read 2.9 µV² (resting-state EEG; healthy elderly humans; oral, 2 mg, eyes open, LS mean).
For `CCC(CO)C(=O)O` (centres unmarked), “z-scored log2 fold change” read 0.362 (binding, equilibrium dialysis LC-MS; 5 µM, thermostabilized A2AR-BRIL construct; relative to: no-protein control, direction not given).
`NC(=O)c1cnc2[nH]ccc2c1N[C@@H]1[C@@H]2CC3C[C@H]1C[C@@](O)(C3)C2` has a percent change of -2% (total naive T cells, flow cytometry; Japanese humans, peripheral blood; 60 mg single dose; relative to: baseline).
`C[C@H](Oc1ccc(Br)cc1-c1ccon1)C(=O)O`: “difference from placebo” 8.97% (muscle velocity recovery cycle; human, tibialis anterior muscle; 400 mg once daily, last response peak at 30 Hz, multiple ascending dose).
Under “percent change from baseline”, `C[C@H]1C[C@H]2CSC(N)=N[C@@]2(c2nc(NC(=O)c3ccc(OC(F)F)cn3)cs2)CO1` is recorded as -65.8% (measured: total Aβ; healthy adults, plasma; 275 mg once daily, day 4; relative to: placebo).
`COc1cc(O)c(CC=C(C)C)c(O)c1C(=O)/C=C/c1ccc(O)cc1`: “hepatic total cholesterol” “no effect” (male Tac:SW mice, conventional and germ-free; in high-fat diet, dose not given; relative to: high-fat diet alone).

Repeated from above:
For `CC(C)[C@H](C(=O)Nc1ccc(C(=O)NO)cc1)c1ccccc1`, the tumour volume was 0.0852 cm3 (volumetric MRI; human, right C1 intradural meningioma; dose not given, day 809).
Under “z-scored log2 fold change”, `NC(=O)CCC(N)C(=O)O` (stereo in doubt) is recorded as 0.242 (binding, equilibrium dialysis LC-MS; 5 µM, thermostabilized A2AR-BRIL construct; relative to: no-protein control, direction not given).
The sarcomere length of `O=C(O)CNC(=O)Cc1ccccc1` is reported as 1.72 µm (ventricular cardiomyocytes, C57BL/6 mouse; dose not given, 0.1 s).
For `O=C(COc1ccc(N2C(=O)[C@@H]3[C@@H]4C=C[C@@H]([C@H]5C[C@@H]45)[C@@H]3C2=O)cc1)c1cc(Cl)cc(Cl)c1`, “plasma EPC level” read “increased” (mice, plasma; 20 mg/kg, single dose).
